Results from different studies.
Lines come from different studies, so protocols differ.
Target: Myosin light chain kinase family member 4 (MYLK4, Homo sapiens, UniProt Q86YV6)

| SMILES | assay | setting | how to read | endpoint | value |
| --- | --- | --- | --- | --- | --- |
| CC(C)=CC1OC(C)(C)C2C=C3C(=O)C(Cl)=CC(O)C3C3C(O)C4OC4C(=O)C132 (centres unmarked) | cell-free assay, competition with immobilised ligand | 10 µM | – | remaining binding | 89% |
| C=CC(=O)N1CCc2ccc(-n3c(=O)ccc4cnc5ccc(-c6cnn(C)c6)cc5c43)cc21 | KINOMEscan | 1 µM | baseline: DMSO control | remaining binding | 93% |
| COc1cc(Nc2nc(C)cc(-c3cnn4nc(OC)ccc34)n2)cc(C(F)(F)F)c1 | inhibitor | 1 µM | baseline: control | remaining activity | 100% |
| Nc1ncc2c(n1)-c1c([nH]c3ccc(C4=CCOCC4)cc13)CCC2 | binding, competition with immobilised ligand | 1 µM | – | remaining binding | 0.1% |
| Cc1cnc2nc1Nc1cccc(c1)COC/C=C/COCc1cc(ccc1OCCN1CCOCC1)N2 | binding | 0.1 µM | – | remaining binding | 100% |
| C=CC(=O)N1CCCC(n2c(=O)c3ncccc3n(Cc3ccc(Oc4ccccc4)cc3)c2=O)C1 (centres unmarked) | cell-free assay, competition with immobilised ligand | 1 µM | – | remaining binding | 100% |
| CNC1C[S+]2CC[S+]3CC[S+](C1)[Ru-4]321([N]=C=S)[n]2c3ccc(OC)cc3c3c4c(c5cc(F)c[n+]1c5c32)C(=O)NC4=O (centres unmarked) | KinomeScan | 0.1 µM | baseline: untreated | remaining binding | 97% |
| COc1cc(Nc2nccc(-c3cnn4nc(OC)ccc34)n2)cc(C(F)(F)F)c1 | binding, competition with immobilised ligand | 1 µM | – | remaining binding | 72% |
| Cc1c[nH]c2nccc(-c3ccc(C(=O)N[C@@H]4c5c(F)cc(C(F)F)cc5C[C@@H]4O)cn3)c12 | binding, competition with immobilised ligand | 3 µM | – | remaining binding | 3.9% |
| CCN1CCN(Cc2ccc(C(=O)Nc3ccc(C)c(NCc4cnc5[nH]ccc5c4OC)c3)cc2C(F)(F)F)CC1 | binding, competition with immobilised ligand | 1 µM | – | remaining binding | 93% |
| Cc1ccc(-c2c(/C=C(\C#N)C(=O)NC(C)C)n(CCCO)c3ncnc(N)c23)cc1 | cell-free assay, competition with immobilised ligand | 1 µM | – | remaining binding | 93% |
| CN1CCN(Cc2ccc(-c3ccc(CO[C@H]4CCC[C@@H]4NC(=O)c4cc(-c5cnn(C)c5)cnc4N)cc3)cc2)CC1 | enzyme activity, inhibitor | 0.1 µM | – | inhibition | -17% |
| Nc1ncc(-c2cc(-c3cnn(CC(F)(F)F)c3)ncc2F)nc1C(=O)NC1CNCC(F)C1 (centres unmarked) | enzyme activity | 1 µM | baseline: DMSO control | remaining activity | 88.4% |
| CNC(=O)C1CCN(c2cc(C)c(F)cc2NC(=O)c2ccc(-c3cc(O)ccc3C)c(C)c2)CC1 | binding, competition with immobilised ligand | 1 µM | – | remaining binding | 100% |
| CCn1cc(C(=O)O)c(=O)c2c(N)c(F)c(NC3CCCCC3)cc21 | kinase activity | 0.1 µM, with: ATP at Km | – | inhibition | 13% |
| COc1c(Cl)cccc1Nc1c(-c2ccncc2C#C[C@@]2(C)CCCN2C(=O)/C=C/CN(C)C)[nH]c2c1C(=O)NCC2 | cell-free assay, competition with immobilised ligand | 3 µM | – | remaining binding | 86% |
| C=CC(=O)N1Cc2nc(-c3cc(-c4cc(Cl)cnc4Cl)c(F)cc3F)n(-c3ccncn3)c2C1 | cell-free assay, inhibitor | 1 µM | – | inhibition | 1.8% |

A few entries again:
| SMILES | assay | setting | how to read | endpoint | value |
| --- | --- | --- | --- | --- | --- |
| C=CC(=O)N1Cc2nc(-c3cc(-c4cc(Cl)cnc4Cl)c(F)cc3F)n(-c3ccncn3)c2C1 | cell-free assay, inhibitor | 1 µM | – | inhibition | 1.8% |
